Measurements collected from several papers.
Protocols differ between the studies behind these lines.

| Substance | target or system | assay | test system | setting | how to read | quantity | value |
| --- | --- | --- | --- | --- | --- | --- | --- |
| RSKRGNRYQRL | Escherichia coli | bacterial survival, plate count | peptide | 20 µM, 4 h, room temperature | relative to: untreated control | bacterial killing | 55.1% |
| polymyxin B | Escherichia coli |  | ATCC BAA-2452, NDM-1 |  |  | MIC | 0.7 µg/mL |
| ILPWNWPWWPWRR | Escherichia coli |  | peptide, K-12 MG1655, Mueller-Hinton broth | concentration not given, 37 °C, unit not given | relative to: no peptide | growth rate | 0.0833 |
| gramicidin D | Escherichia coli |  | tetracycline-resistant | 20 µM, with: tetracycline |  | FIC index | 1 |
| RWRYRRRGYLAMG | Escherichia coli | bacterial survival, plate count | peptide | 20 µM, 4 h, room temperature | relative to: untreated control | bacterial killing | 25.6% |
| ILPWYWPWWPWRR | Escherichia coli |  | peptide, K-12 MG1655, Mueller-Hinton broth | concentration not given, 37 °C, unit not given | relative to: no peptide | growth rate | 0.326 |
| insulin human |  | refers to: CAMK4 mRNA | uninfected mouse, brain | i.p., dose not given | relative to: PBS | fold change | 1.28 |
| ILPWMWPWWPWRR | Escherichia coli |  | peptide, K-12 MG1655, Mueller-Hinton broth | concentration not given, 37 °C, unit not given | relative to: no peptide | growth rate | 0.147 |
| Polymyxin B | Escherichia coli |  | K1 ATCC 700973 | 16 h, 37 °C, Mueller-Hinton broth |  | MIC | 1 µM |
| colistin | Escherichia coli |  | ATCC BAA-2452, NDM-1 |  |  | MIC | ≤ 0.12 µg/mL |
| Polymyxin B | Escherichia coli | broth microdilution | E24 clinical isolate | 20 h |  | MIC | 2 µg/mL |
| ILPWQWPWWPWRR | Escherichia coli |  | peptide, K-12 MG1655, Mueller-Hinton broth | concentration not given, 37 °C, unit not given | relative to: no peptide | growth rate | 0.189 |
| RRNQKRKRGYNSV | Escherichia coli | bacterial survival, plate count | peptide | 20 µM, 4 h, room temperature | relative to: untreated control | bacterial killing | 42.6% |

Excerpt of the above:
| Substance | target or system | assay | test system | setting | how to read | quantity | value |
| --- | --- | --- | --- | --- | --- | --- | --- |
| RRNQKRKRGYNSV | Escherichia coli | bacterial survival, plate count | peptide | 20 µM, 4 h, room temperature | relative to: untreated control | bacterial killing | 42.6% |
